{"data": "Results gathered from unrelated publications", "note": "A part holds a random share of what one study measured. Positions count from the first letter of the parent shown."}
{"data": "Sample 1", "target": "Phosphate system positive regulatory protein PHO4, full length, GST-tagged (PHO4, Saccharomyces cerevisiae, UniProt P07270, residues 1-312)", "method": "competition protein-binding microarray", "form": "double-stranded DNA, one strand shown", "medium": "in vitro", "concentration": "2 µM", "notes": "whole 60-bp probe, lowest competitor level", "together with": "Cbf1 competitor, 0.05 µM", "reading": "higher = stronger binding", "shared flanks, not repeated": "… GTCTTGATTCGCTTGACGCTGCTG", "Construct (chain)": "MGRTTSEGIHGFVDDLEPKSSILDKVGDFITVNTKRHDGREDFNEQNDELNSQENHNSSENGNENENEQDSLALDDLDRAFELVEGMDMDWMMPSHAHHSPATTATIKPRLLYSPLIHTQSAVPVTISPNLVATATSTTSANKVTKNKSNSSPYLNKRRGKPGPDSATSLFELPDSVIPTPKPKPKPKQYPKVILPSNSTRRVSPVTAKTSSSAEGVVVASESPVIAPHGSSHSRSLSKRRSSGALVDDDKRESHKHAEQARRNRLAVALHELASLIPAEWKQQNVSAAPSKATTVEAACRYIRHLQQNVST"}
{"Sequence": "ATAGCTCAAGTACTGTTCGTGGGTACCTTAAGCCTG", "fluorescence intensity": "4540 a.u."}
{"Sequence": "GCCGGAAAAAAAAAGCACGCATCCGGCAAGCACACT", "fluorescence intensity": "8650 a.u."}
{"Sequence": "GTCTTGTCTCATTTTCACGTGTGCTTCCCCACTTCA", "fluorescence intensity": "10000 a.u."}
{"Sequence": "AAGCTAAGCTCGAAGGACGTGCTAAGACATACGAAT", "fluorescence intensity": "7350 a.u."}
{"Sequence": "TTCAGAGAACTCCTTCATGTGCTTCAAGACAGAGTC", "fluorescence intensity": "6150 a.u."}
{"Sequence": "GTCTTGTCTCATTGTCACATTACTTTCCCCACTTCA", "fluorescence intensity": "4780 a.u."}
{"Sequence": "CATACCCAACCTTGATCAGTGGGTGAAGATATTTGT", "fluorescence intensity": "3420 a.u."}
{"Sequence": "ACCCTCAAGCTTTGGCGCGTGCGGATCTATATAAGG", "fluorescence intensity": "13100 a.u."}
{"Sequence": "CTTTCCCGATCTTGGTCTGTGGGTGTAGCACATTTG", "fluorescence intensity": "4960 a.u."}
{"Sequence": "GCAATGCGATGCAGCCACGTTATATAATGCGTTTAA", "fluorescence intensity": "8510 a.u."}
{"Sequence": "TGGGAAGAAAAAAAGCACGTGAGCCTGGAAAATCCG", "fluorescence intensity": "16200 a.u."}
{"Sequence": "TTGCGGGTATCGTTGCCCGTGTCCTTGTCAATGAAG", "fluorescence intensity": "7300 a.u."}
{"Sequence": "CGGGGTTAAGTTTGAGGTGTGGGTGGCTTGCAGCAG", "fluorescence intensity": "5750 a.u."}
{"Sequence": "GAAGTCCCTAGCTTCCACGGGATGTTTCAGCATTAA", "fluorescence intensity": "5550 a.u."}
{"Sequence": "AAATTACTAAGTTGTCACGCCACTTACCCCGTATGA", "fluorescence intensity": "5030 a.u."}
{"Sequence": "GTAAAACGCCTCTTCCACGTTGATTGCTTGCTTAGC", "fluorescence intensity": "10200 a.u."}
{"Sequence": "CCGGTAATGGCGGAGCATGTGATGGAGGAATGGGCG", "fluorescence intensity": "8450 a.u."}
{"Sequence": "GCACTGATGCAGCCGTGCGTGTAACTAAAACATTTA", "fluorescence intensity": "7190 a.u."}
{"Sequence": "TTCAGCACAACCGACCACGTGAGACGAGGGTCGAAG", "fluorescence intensity": "16400 a.u."}
{"data": "Sample 2", "target": "RNA binding protein fox-1 homolog 2, RRM domain, GST-SBP tag (RBFOX2, Homo sapiens, UniProt O43251-10, residues 100-194)", "method": "RNA Bind-n-Seq", "form": "RNA", "medium": "in vitro", "concentration": "365 nM", "notes": "natural RNA segment, single round, ends assumed", "reference": "no-protein control", "reading": "higher = stronger binding", "shared flanks, not repeated": "GGGAGUUCUACAGUCCGACGAUC … UGGAAUUCUCGGGUGCCAA"}
{"Sequence": "CUAGGCUGGCCAUAGACCCAGCUCUGCCUCACCCUGCCAUGUUCCAGUAAUGGAGGCCUCCAGCCUGGGCUCUAUUACAUUCUUCUCUACAGCUGCCCCAUAACCCGUGG", "RBNS enrichment (R)": 0.605}
{"Sequence": "AUUGCUCCAGGAUCUGGUAUACUGUUCUCAUAAAACUGAGAGGAGAAAAAAAGUGAAAGAAAGCAGCUGCUUUAAGAAUGGUUUUCCACCUUUUCCCCCUAAUCUCUACC", "RBNS enrichment (R)": 0.963}
{"Sequence": "GAUUCUGUUUGCUCCACGUGCCUGCUUCUUGCUACUGUUCAUUUAGUAAUGGGAUCACCUCACCAUGCCAUGCUCUGGGCUCUCCCUCUCUGUCCAUUUCUGUUUUGCUU", "RBNS enrichment (R)": 2.42}
{"Sequence": "UGGAGCCAGCGAGACCAGGAUCCCUGGAAUCUCUCAAGUUCACUGGCCCCUGAGAAUGCCUGUGUUAGUUAAAGACAGAUGGGAUCAAGGCGAGGGCUACAGGCUGAGAG", "RBNS enrichment (R)": 1.15}
{"Sequence": "AAUUAGAUUUCCCUAGGAGGUAUGACAUGCGAUUUACUGUAGGCUCUGAAUCCGAGUGCUCCAGUGCAGUGUAAUGAGCUCCAACUUGGUGUGUACUGCCUGCUGGACUG", "RBNS enrichment (R)": 0.952}
{"Sequence": "AAACGUUCACCCAGUGAUCUUGGGCUGGGGUUGUCUUUAGGAAAAGUUGAGACUAUAAGAGUCAUAAAUAAGUCCUUGUGUUUCCUUAAUUUAUUUUGUUAACACCCCUA", "RBNS enrichment (R)": 0.38}
{"Sequence": "GGGAGUUGCAGUAGCAUGAUCAGGACUCACUGCAGCCUCUAUCUCCCAGGCUCAAGUAAUCCUCCCAUCUUAGUGCCCCAAGUAGCUGGGACUACAGGGGUGCACUACCA", "RBNS enrichment (R)": 1.35}
{"Sequence": "GGCAUGGUGGCACACGCCUGUAAUCCCAGCUACACCUGAGGCUGAGGCAGGAGAAUUGCUUGAACCGGGGAGACGGAGGUUGCAGUGAGCCGAGUUUGGGCCACUGCACU", "RBNS enrichment (R)": 3.18}
{"data": "Sample 3", "target": "Histone acetyltransferase KAT6A, both winged helices, GST fusion (KAT6A, Homo sapiens, UniProt Q92794, residues 1-181)", "method": "protein binding microarray", "form": "double-stranded DNA, one strand shown", "medium": "in vitro", "concentration": "not given", "notes": "8-mer, flanks averaged, mean of 2 arrays, mostly near background", "reference": "not given", "reading": "higher = stronger binding", "Residues (chain)": "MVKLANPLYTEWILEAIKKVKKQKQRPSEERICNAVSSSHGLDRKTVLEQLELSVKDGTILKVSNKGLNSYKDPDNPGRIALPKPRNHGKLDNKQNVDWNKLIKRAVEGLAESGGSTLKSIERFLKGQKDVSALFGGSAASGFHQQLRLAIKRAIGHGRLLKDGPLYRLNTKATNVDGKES"}
{"Sequence": "AAACCTAT", "E-score": 0.00245}
{"Sequence": "CTCTAGAC", "E-score": -0.172}
{"Sequence": "CTCAACAA", "E-score": -0.166}
{"Sequence": "GCAGCTAC", "E-score": -0.0955}
{"Sequence": "ATGTGACC", "E-score": -0.0333}
{"Sequence": "CCGAGACA", "E-score": -0.0832}
{"Sequence": "CATCGAAA", "E-score": 0.00793}
{"Sequence": "GCATATGC", "E-score": 0.07}
{"Sequence": "GGGGTAGA", "E-score": -0.0773}
{"Sequence": "CTTTGATA", "E-score": -0.0717}
{"Sequence": "AAACGGGC", "E-score": 0.195}
{"Sequence": "CTCCGGTA", "E-score": 0.165}
{"Sequence": "AACGTATC", "E-score": -0.105}
{"Sequence": "ATTATAAA", "E-score": -0.0245}
{"Sequence": "ACAGTAGC", "E-score": -0.0182}
{"Sequence": "CGTTTCAA", "E-score": 0.0558}
{"data": "Sample 4", "target": "ABI1, truncated, D143A, DHFR fusion (Arabidopsis thaliana, UniProt P49597)", "method": "DHFR PCA, dose-response", "medium": "yeast", "notes": "Hill fit, not affinity, not high confidence", "together with": "(+)-ABA, dose series", "reading": "lower = more sensitive", "starting sequence": "PYL1, truncated, DHFR fusion (Arabidopsis thaliana, UniProt Q8VZS8); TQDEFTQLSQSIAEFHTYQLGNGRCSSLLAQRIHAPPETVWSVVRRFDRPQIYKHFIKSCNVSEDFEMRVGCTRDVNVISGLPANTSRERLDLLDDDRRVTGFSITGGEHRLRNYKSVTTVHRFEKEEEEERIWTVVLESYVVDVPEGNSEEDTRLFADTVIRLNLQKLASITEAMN"}
{"Substitution": "V137E", "ABA EC50": "750 µM"}
{"Substitution": "D159P", "ABA EC50": "166 µM"}
{"Substitution": "L169F", "ABA EC50": "217 µM"}
{"Substitution": "Y141Q", "ABA EC50": "1.14 µM"}
{"Substitution": "V43P", "ABA EC50": "465 µM"}
{"Substitution": "F103R", "ABA EC50": "869 µM"}
{"Substitution": "V145N", "ABA EC50": "55.9 µM"}
{"Substitution": "T120R", "ABA EC50": "910 µM"}
{"Substitution": "D48M", "ABA EC50": "361 µM"}
{"Substitution": "A84P", "ABA EC50": "0.24 µM"}
{"Substitution": "A158F", "ABA EC50": "343 µM"}
{"Substitution": "I105D", "ABA EC50": "10.8 µM"}
{"Substitution": "P50H", "ABA EC50": "2.57 µM"}
{"Substitution": "L91E", "ABA EC50": "4.38 µM"}
{"Substitution": "D153K", "ABA EC50": "133 µM"}
{"Substitution": "N149Y", "ABA EC50": "262 µM"}
{"Substitution": "G81L", "ABA EC50": "792 µM"}
{"Substitution": "R74L", "ABA EC50": "81 µM"}
{"Substitution": "S87I", "ABA EC50": "0.795 µM"}
{"note": "Excerpt of the above (sample 4):"}
{"Substitution": "Y141Q", "ABA EC50": "1.14 µM"}
{"Substitution": "V43P", "ABA EC50": "465 µM"}
{"Substitution": "F103R", "ABA EC50": "869 µM"}
{"Substitution": "V145N", "ABA EC50": "55.9 µM"}
